Measurements collected from several papers.
“And” joins repeats or separate records; there may be more than shown.
Target: MAP kinase-interacting serine/threonine-protein kinase 2 (MKNK2, Homo sapiens, UniProt Q9HBH9)
UniProt Q9HBH9, sequence (whole entry, looked up): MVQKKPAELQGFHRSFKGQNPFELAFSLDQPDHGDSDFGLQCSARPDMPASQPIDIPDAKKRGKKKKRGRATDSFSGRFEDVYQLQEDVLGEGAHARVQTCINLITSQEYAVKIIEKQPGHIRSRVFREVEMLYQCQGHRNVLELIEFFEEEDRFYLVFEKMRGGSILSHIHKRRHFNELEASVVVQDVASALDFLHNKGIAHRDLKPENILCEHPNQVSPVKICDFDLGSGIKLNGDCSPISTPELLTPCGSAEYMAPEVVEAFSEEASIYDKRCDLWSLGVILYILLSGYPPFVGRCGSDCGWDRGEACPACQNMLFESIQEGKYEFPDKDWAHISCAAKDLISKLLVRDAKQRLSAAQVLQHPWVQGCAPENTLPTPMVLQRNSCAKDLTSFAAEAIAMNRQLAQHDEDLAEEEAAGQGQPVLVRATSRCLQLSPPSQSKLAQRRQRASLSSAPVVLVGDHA

Structure (SMILES)	test	conditions	how to read	endpoint	result
CNC1C[S+]2CC[S+]3CC[S+](C1)[Ru-4]321([N]=C=S)[n]2c3ccc(OC)cc3c3c4c(c5cc(F)c[n+]1c5c32)C(=O)NC4=O (stereo not shown)	KinomeScan	0.1 µM	relative to: untreated	remaining binding	89%
CN1CCN(Cc2ccc(-c3ccc(CO[C@H]4CCC[C@@H]4NC(=O)c4cc(-c5cnn(C)c5)cnc4N)cc3)cc2)CC1	enzyme activity, inhibitor	0.1 µM	–	inhibition	4%
COc1c(OCCCN2CCOCC2)ccc2c1N=C(NC(=O)c1cnc(N)nc1)N1CCN=C21	kinase activity, inhibitor	1 µM	relative to: untreated control	remaining activity	106%
C=C1CCCCCCCCCC(CO)C1=O (stereo not shown)	cell-free assay, competition with immobilised ligand	10 µM	–	remaining binding	100%
CNS(=O)(=O)Nc1nccc(Cc2c(C)c3ccc(Oc4ncccc4F)cc3oc2=O)c1F	binding, competition with immobilised ligand	10 µM	–	remaining binding	91%
CN1CC[C@@H](COc2cnc(C#N)cc2-c2ccn3nc(NC(=O)C4CC4)cc3c2)C1	enzyme activity, inhibitor	1 µM	–	inhibition	2%
Cc1cnc2nc1Nc1cccc(c1)COC/C=C/COCc1cc(ccc1OCCN1CCOCC1)N2	binding	0.1 µM	–	remaining binding	76%
Cc1ccc(-c2c(/C=C(\C#N)C(=O)NC(C)C)n(CCCO)c3ncnc(N)c23)cc1	cell-free assay, competition with immobilised ligand	1 µM	–	remaining binding	92%
Cc1cccc(C2(C(=O)Nc3c[nH]nc3-c3ccccc3)CC2)c1	cell-free assay, competition with immobilised ligand	10 µM	–	remaining binding	17%
Nc1ncc2c(n1)-c1c([nH]c3ccc(C4=CCOCC4)cc13)CCC2	binding, competition with immobilised ligand	1 µM	–	remaining binding	86%
Cc1cccc(-c2ccc3nc(NC(=O)C4CCCO4)nn3c2)c1 (stereo not shown)	enzyme activity, Dundee kinase panel	10 µM	–	remaining activity	68%
Cc1cccc(O[C@H]2CCC[C@@H](C(C)CNCc3ccncc3)C2)c1 (relative stereo)	enzyme activity, inhibitor	1 µM	–	inhibition	0%
COC(=O)[C@@]1(C)C=C(C(=O)Nc2cccc(C(=O)Nc3ccc(Nc4nccc(-c5cccnc5)n4)c(C)c3)c2)C(=O)CC1	enzyme activity, inhibitor, radiometric	1 µM	–	remaining activity	106%
COc1cc(Nc2nccc(-c3cnn4nc(OC)ccc34)n2)cc(C(F)(F)F)c1	binding, competition with immobilised ligand	1 µM	–	remaining binding	84%
CNC(=O)C1CCN(c2cc(C)c(F)cc2NC(=O)c2ccc(-c3cc(O)ccc3C)c(C)c2)CC1	binding, competition with immobilised ligand	1 µM	–	remaining binding	91%
NC(=O)C[C@H]1CCc2sc3ncnc(O[C@H]4CC[C@H](N5CCOCC5)CC4)c3c21	enzyme activity, inhibitor	10 µM	–	inhibition	7%
C=CC(=O)Nc1cccc(-c2cnc3[nH]cc(C(=O)NC(C)(C)C)c3n2)c1	kinase activity	0.1 µM	–	inhibition	9% and 1%
Nc1nc(Nc2ccccc2)sc1C(=O)c1ccccc1	enzyme activity, inhibitor	10 µM	–	remaining activity	70%
Cc1cccc(-c2ccc3nc(NC(=O)C4CCOCC4)nn3c2)c1	enzyme activity, Dundee kinase panel	10 µM	–	remaining activity	79%
C=CC(=O)N1CCCC(n2c(=O)c3ncccc3n(Cc3ccc(Oc4ccccc4)cc3)c2=O)C1 (stereo not shown)	cell-free assay, competition with immobilised ligand	1 µM	–	remaining binding	61%
CN1CCN(Cc2ccc(NC(=O)c3cccc(C#Cc4cnc(N)c5ncccc45)c3)cc2C(F)(F)F)CC1	cell-free assay, competition with immobilised ligand	0.5 µM	–	remaining binding	0.5%
COc1ccc(NC(=O)Nc2ccc3c(c2)C(=O)N(C(C)CO)CC(C)C(CN(C)Cc2ccc4c(c2)OCO4)O3)cc1 (stereo not shown)	binding, competition with immobilised ligand	10 µM	–	remaining binding	77%

For quick reference, copied from above:
Structure (SMILES)	test	conditions	how to read	endpoint	result
Nc1ncc2c(n1)-c1c([nH]c3ccc(C4=CCOCC4)cc13)CCC2	binding, competition with immobilised ligand	1 µM	–	remaining binding	86%
Cc1cccc(-c2ccc3nc(NC(=O)C4CCCO4)nn3c2)c1 (stereo not shown)	enzyme activity, Dundee kinase panel	10 µM	–	remaining activity	68%
Cc1cccc(O[C@H]2CCC[C@@H](C(C)CNCc3ccncc3)C2)c1 (relative stereo)	enzyme activity, inhibitor	1 µM	–	inhibition	0%
